Published values gathered from unrelated publications.
Numbered parts are unrelated; each lists some results of a single study. Positions count from the first letter of the parent shown.

Set 1
Target: CREB5, bZIP domain (human)
Technique: DHFR protein complementation
Medium: yeast
Notes: single substitutions, most at no-binding floor
Baseline: wild-type JUN-FOS pair
Direction: higher = stronger binding
Starting sequence: JUN, bZIP domain (human); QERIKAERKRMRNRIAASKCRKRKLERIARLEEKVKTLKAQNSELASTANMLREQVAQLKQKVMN; partner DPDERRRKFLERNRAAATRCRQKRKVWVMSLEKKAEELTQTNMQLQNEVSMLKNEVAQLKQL
The binding fitness of `E33Q` is reported as -0.509 natural log.
`M51P` gave a binding fitness of -1.4 natural log.
The binding fitness of `L59D` is reported as -1.29 natural log.
With `R53Y` the binding fitness was -1.25 natural log.
`A49R` has a binding fitness of -0.167 natural log.
`L38H` gave a binding fitness of -1.2 natural log.
`K34W` has a binding fitness of -0.346 natural log.
`I28M` gave a binding fitness of -0.314 natural log.
The binding fitness of `L52C` is reported as -1.39 natural log.
`A29L` gave a binding fitness of -0.512 natural log.
`Q41S` has a binding fitness of -1.28 natural log.
With `Q55L` the binding fitness was -0.517 natural log.
For `A57S`, the binding fitness was -0.366 natural log.
`K39P` has a binding fitness of -1.34 natural log.
`M51V` gave a binding fitness of -0.356 natural log.
The binding fitness of `L52P` is reported as -1.4 natural log.
With `R53V` the binding fitness was -1.26 natural log.
`E33C` gave a binding fitness of -0.584 natural log.
For `E54F`, the binding fitness was -0.791 natural log.
With `E33A` the binding fitness was -0.33 natural log.
With `A49Y` the binding fitness was -0.927 natural log.
The binding fitness of `N42S` is reported as -0.965 natural log.
For `E54M`, the binding fitness was -0.548 natural log.
The binding fitness of `S47T` is reported as -0.278 natural log.
With `N42P` the binding fitness was -1.38 natural log.

Set 2
Target: Histone acetyltransferase KAT6A, both winged helices, GST fusion (KAT6A, Homo sapiens, UniProt Q92794, residues 1-181)
Technique: protein binding microarray
Form: double-stranded DNA, one strand shown
Medium: in vitro
Concentration: not given
Notes: 8-mer, flanks averaged, mean of 2 arrays, mostly near background
Baseline: not given
Direction: higher = stronger binding
Construct (chain): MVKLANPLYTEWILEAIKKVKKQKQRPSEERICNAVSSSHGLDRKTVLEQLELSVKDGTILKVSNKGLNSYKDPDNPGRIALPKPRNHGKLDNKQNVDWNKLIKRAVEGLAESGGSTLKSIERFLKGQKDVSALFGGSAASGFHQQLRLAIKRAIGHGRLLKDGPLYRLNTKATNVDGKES
`CTTTTCCA` gave an E-score of -0.103.
With `ACTCGATG` the E-score was -0.106.
`ACCGCTTA` has an E-score of 0.166.
`CTGGGACC` has an E-score of -0.122.
`GGTTTTCA` has an E-score of 0.0404.
For `AAAGCCTC`, the E-score was -0.233.
For `AAGGTGCG`, the E-score was 0.088.
With `CGCGTTTA` the E-score was 0.226.
`CGGAAGCA` has an E-score of 0.158.
`AGGACCTA` has an E-score of -0.00886.
`CAGCATAA` gave an E-score of -0.147.
The E-score of `GAAAGCAA` is reported as -0.0301.
`AAAGTTCT` gave an E-score of -0.0172.
With `GTACTGGA` the E-score was -0.0824.
`AAAGATTG` gave an E-score of -0.189.
For `ACCGTTGC`, the E-score was 0.19.
The E-score of `ATAGCTAG` is reported as -0.116.
`ATCCCTCA` has an E-score of -0.042.
For `CAGACTCG`, the E-score was -0.15.

Set 3
Target: Sal-like protein 4, full length isoform A (SALL4, Homo sapiens, UniProt Q9UJQ4, residues 1-1053)
Chain of UniProt Q9UJQ4 (whole entry, looked up): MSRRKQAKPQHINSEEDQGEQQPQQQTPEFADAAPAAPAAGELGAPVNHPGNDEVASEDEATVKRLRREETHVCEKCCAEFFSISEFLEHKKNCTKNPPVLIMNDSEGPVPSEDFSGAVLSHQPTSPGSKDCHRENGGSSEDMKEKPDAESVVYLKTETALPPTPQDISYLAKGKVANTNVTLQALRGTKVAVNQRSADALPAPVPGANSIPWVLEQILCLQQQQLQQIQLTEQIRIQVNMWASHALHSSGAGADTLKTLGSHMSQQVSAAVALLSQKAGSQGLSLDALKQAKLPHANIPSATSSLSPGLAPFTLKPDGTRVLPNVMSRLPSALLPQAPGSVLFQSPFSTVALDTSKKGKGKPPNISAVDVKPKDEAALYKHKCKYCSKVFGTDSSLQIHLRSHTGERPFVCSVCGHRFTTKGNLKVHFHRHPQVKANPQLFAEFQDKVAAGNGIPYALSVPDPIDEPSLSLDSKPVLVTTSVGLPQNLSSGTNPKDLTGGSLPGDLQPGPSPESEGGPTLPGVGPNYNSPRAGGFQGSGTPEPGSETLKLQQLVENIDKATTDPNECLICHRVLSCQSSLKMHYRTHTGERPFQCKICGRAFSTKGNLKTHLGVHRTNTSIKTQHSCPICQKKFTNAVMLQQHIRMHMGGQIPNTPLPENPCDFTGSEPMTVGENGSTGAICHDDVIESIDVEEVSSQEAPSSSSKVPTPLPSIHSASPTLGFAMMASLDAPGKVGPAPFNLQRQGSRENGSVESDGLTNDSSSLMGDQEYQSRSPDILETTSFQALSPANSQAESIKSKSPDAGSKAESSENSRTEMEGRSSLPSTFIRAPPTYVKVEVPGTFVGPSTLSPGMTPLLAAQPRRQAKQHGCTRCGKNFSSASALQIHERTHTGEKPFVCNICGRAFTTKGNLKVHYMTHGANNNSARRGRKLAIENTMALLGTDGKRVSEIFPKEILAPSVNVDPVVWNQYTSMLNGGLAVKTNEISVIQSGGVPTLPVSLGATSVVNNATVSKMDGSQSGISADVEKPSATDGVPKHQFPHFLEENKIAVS
Technique: universal PBM
Form: double-stranded DNA, one strand shown
Medium: in vitro
Concentration: 600 nM
Notes: 8-mer, flanks averaged, mean of replicates
Direction: higher = stronger binding
`ACACAAAT` has an E-score of 0.234.
For `GATCCCTA`, the E-score was -0.117.
`CAGATTGG` has an E-score of -0.154.
With `GTGGGTGA` the E-score was -0.0533.
The E-score of `ACCTCTCT` is reported as -0.105.
For `AATGCTTG`, the E-score was 0.00698.
For `GACTGCAC`, the E-score was -0.165.
For `ACTGCAAC`, the E-score was -0.184.
With `CCAACACC` the E-score was -0.239.
`ACTACAGC` gave an E-score of -0.123.
With `ACCTGCAT` the E-score was -0.0302.
`AACAAAGA` gave an E-score of 0.192.
`AAGAATAC` gave an E-score of 0.236.
`CTTAGTCA` gave an E-score of 0.0685.
`AATGAGCG` has an E-score of 0.128.
The E-score of `CCAGTATA` is reported as 0.194.
The E-score of `ACTAAAAG` is reported as 0.108.
`CACAGCGA` has an E-score of -0.0836.
`GCTCCCCC` has an E-score of -0.284.
The E-score of `ATCCGCAC` is reported as -0.0786.
With `CAGCTAAC` the E-score was -0.0713.

Set 4
Target: Phosphate system positive regulatory protein PHO4, full length, GST-tagged (PHO4, Saccharomyces cerevisiae, UniProt P07270, residues 1-312)
Technique: competition protein-binding microarray
Form: double-stranded DNA, one strand shown
Medium: in vitro
Concentration: 2 µM
Notes: whole 60-bp probe, lowest competitor level
Added: Cbf1 competitor, 0.05 µM
Direction: higher = stronger binding
Target sequence (chain): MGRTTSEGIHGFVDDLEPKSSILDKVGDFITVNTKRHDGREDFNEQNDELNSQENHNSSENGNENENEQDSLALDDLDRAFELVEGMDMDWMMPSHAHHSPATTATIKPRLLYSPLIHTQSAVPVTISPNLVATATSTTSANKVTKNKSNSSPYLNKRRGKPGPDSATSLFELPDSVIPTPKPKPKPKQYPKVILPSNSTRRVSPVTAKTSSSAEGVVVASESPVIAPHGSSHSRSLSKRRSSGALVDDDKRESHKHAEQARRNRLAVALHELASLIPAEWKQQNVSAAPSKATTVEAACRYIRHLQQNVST
`CGGGGTTAAGTTTTTCACGTGACTTGCTTGCAGCAGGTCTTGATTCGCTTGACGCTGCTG` gave a fluorescence intensity of 9810 a.u.
`TGCGCAACAACTTGAGTGGTGGGTGTATGTCTAGAAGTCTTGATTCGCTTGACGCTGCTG` gave a fluorescence intensity of 4610 a.u.
`TGCGCAACAACTTTTCACGTGTGCTTATGTCTAGAAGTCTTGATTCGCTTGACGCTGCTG` has a fluorescence intensity of 13700 a.u.
`TTGATATGTTTATGTAATAATATTTACCACCGCCACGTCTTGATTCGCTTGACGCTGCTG` gave a fluorescence intensity of 4200 a.u.
`AAATTACTAAGTTGATAAGTGGGTGACGCCGTATGAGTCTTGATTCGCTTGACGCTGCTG` gave a fluorescence intensity of 3940 a.u.
For `GTATCCATATCTTTTTGAGAGCATTGAAAGTATACGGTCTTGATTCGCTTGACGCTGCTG`, the fluorescence intensity was 4280 a.u.
`GCGTAGACGGATTTGCACGATGCGATGATAAATATTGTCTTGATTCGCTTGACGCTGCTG` has a fluorescence intensity of 8830 a.u.
`ATAACGGTACTTATTTGCATGACGCTCATCAACCCTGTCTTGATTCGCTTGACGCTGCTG` has a fluorescence intensity of 3800 a.u.
`CTTTCCCGATCTTGAACAGTGGGTGTAGCACATTTGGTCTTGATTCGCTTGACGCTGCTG` gave a fluorescence intensity of 4810 a.u.
The fluorescence intensity of `TGTCTGGAAGGGCCACACCCGGAATTGCAGGTCTACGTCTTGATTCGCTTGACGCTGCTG` is reported as 3750 a.u.
With `CTTTCCCGATCTTGCAAAGTGGGTGTAGCACATTTGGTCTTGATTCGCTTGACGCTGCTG` the fluorescence intensity was 4720 a.u.
The fluorescence intensity of `ATACATCCCCAAGTTCACCTGACTGGAACTAGTGGAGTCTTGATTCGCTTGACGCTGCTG` is reported as 3280 a.u.
`TAAAAAATTTTCGGCCACGTAGTTGTATACTTTTGTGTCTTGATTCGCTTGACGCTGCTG` has a fluorescence intensity of 6660 a.u.
`CTTGGAGCAAGCCTACACGTGTGAATATTCTACGGCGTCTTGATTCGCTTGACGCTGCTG` has a fluorescence intensity of 14900 a.u.
For `GCGCGAGAACATTACGACGCGCCTTCCCGTTAAATTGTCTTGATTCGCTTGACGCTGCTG`, the fluorescence intensity was 3740 a.u.
The fluorescence intensity of `GGCTAGTGCCAATATCACAAACAATAGGGACATCCAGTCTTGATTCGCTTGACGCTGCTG` is reported as 3260 a.u.
For `CTAACGAAGGTTTTTCACGTGAATTACAAGCCAAGTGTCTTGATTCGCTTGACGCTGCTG`, the fluorescence intensity was 9490 a.u.
